Measured values gathered from unrelated publications.
Each numbered part is a random draw from the data of one study; scales do not carry over between parts. Substitutions count along the parent as printed.

Set 1 — technique: RNA Bind-n-Seq; molecule type: RNA; sample: in vitro; tested at: 365 nM; relative to: no-protein control; reading: higher = stronger binding; quantity: RBNS enrichment (R)
Target: RNA binding protein fox-1 homolog 2, RRM domain, GST-SBP tag (RBFOX2, Homo sapiens, UniProt O43251-10, residues 100-194)
Notes: natural RNA segment, single round, ends assumed
Constant ends, left off below: GGGAGUUCUACAGUCCGACGAUC … UGGAAUUCUCGGGUGCCAA
Target sequence (chain): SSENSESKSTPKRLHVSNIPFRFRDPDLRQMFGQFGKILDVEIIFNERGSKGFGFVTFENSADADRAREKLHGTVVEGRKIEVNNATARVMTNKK
Oligonucleotide = UGAAGCCCUUGCUCCACUGCCACCAGCCCGCCUGCCCCAGUGCAGACUGGUCUUCAGGAGUCAGUAGACCACCGGACCAGGUGUCAGCAUCCACUCCAAGCCAUGCUAGG; result = 0.346
Oligonucleotide = CCACUCCAGCUGGGCCGGUGUGCAGUGGGCCAGGGUCCUCACCUGCCUUGCAGACCCUGGUUCCCGCCCUGUGGAUCUCUCAGCACUACUGAUGUGUCCUGGGUUGGCAG; result = 2.48
Oligonucleotide = UUCCUACUAUAGCAUGAACCCUACAUACGCCACCCUCAGUCUCUCUUGCUUCCUCUUUAACCCGGAGAGGGACUCCCCUGUGGCUAUCCCCCAUCUCUACCAACAAAGUG; result = 5.34
Oligonucleotide = AUGUGGUCCAGCUGUUUUAAUUGAGUGCUUUUAAAUGAAACCUGACUGCCAUCUUUCUUUUGUGACUUUCUUCCUUAAGCAACAGUAAACUUGCAGCAGAUCUGGUUUUU; result = 0.684
Oligonucleotide = UACUGCAGAUUAAGUAAAGAACUUAGAUGCUAAAUUACAUCUAAUUUUGUAUGUUUUUUUAAAUGUGUCUUUGAUGCAUACUUUAGAAGCACACUGGCUCGCGGUUUCCA; result = 0.276
Oligonucleotide = UCCACAGUUGUCAGUUGUGAAGAGGGGACCAGAUGUCACUCUGCAGCAGGCUGAUGGAAGAUGGCGGGGCCUGCCAACCCCGAGGCUGGGGGAUCGCCAUAUGGACCACC; result = 0.658
Oligonucleotide = ACCCCACCAGGCCAUCCCCAUACCUUCUGGUUUGAAGGCGCUGACACUGGCAGAGAGGUAAAGGGUGGGGCAUUGAGAAUGGAGGCUCCCAGGGUCCCUGCCCACUUCUG; result = 0.41
Oligonucleotide = UUAGCAUAAACUAAUUCCUUUUGAGUUUGUAAAUCAUUUGUACCCAGAAUGUAUUAUAAUAUAUUGCUAUUAGGUUACUCUACUAACUGGAGCCAUGCCGACCUCUACAA; result = 0.375
Oligonucleotide = GUGUAGCUGAGUAACAUCUUUUAGCUGACUAUAAAUCACUUUGUUUUUAAACAAGAAAAGCUGUGCUCUUUUAUGUGAUGCCUUUUUUAUUUAUUCAGGCUAUACCUACA; result = 0.363
Oligonucleotide = GGAAACCUCAGAACUGGUCUAUUUGGUGUCGUGGAACCUCUUACUGCUUUCAAUACACGAUUAGUAAUCAACUGUUUUGUAUACUUGUUUUCAGUUUUCAUUUCGACAAA; result = 0.321
Oligonucleotide = UGUGGCAGUCUGCAAGUGGAAUUUUGGGAUGGCAGCCCGAGGAACAUCCAGAGUUACUGUGUGACUUGGUCCUGCCAUCGUUAGCUUUGAAAUCACAGGCAUUGGGCUCU; result = 0.682
Oligonucleotide = UGAGCGAUCUUCUAUGCAGUUCUGCCAUGCGUCCUGUUGGUCUCUCUGUGUUCUUUGUUACUUGGGUGCAAUAGCAACUUCCCUACCCCGUGCAUUCCAUCUUUCAUGUU; result = 0.325

Set 2 — technique: DHFR PCA, deep sequencing; sample: yeast; with: (+)-ABA 0 µM; relative to: wild-type fitted maximum; reading: higher = stronger binding; quantity: relative binding score
Target: ABI1, truncated, D143A, DHFR fusion (Arabidopsis thaliana)
Notes: methotrexate growth selection, single substitutions
Starting sequence: PYL1, truncated, DHFR fusion (Arabidopsis thaliana); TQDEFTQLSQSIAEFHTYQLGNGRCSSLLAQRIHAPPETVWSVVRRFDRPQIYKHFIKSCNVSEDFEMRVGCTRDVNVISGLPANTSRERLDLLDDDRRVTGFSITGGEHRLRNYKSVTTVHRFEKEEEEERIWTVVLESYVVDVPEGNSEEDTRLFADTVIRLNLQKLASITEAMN
Change = L138V; result = 5.84%
Change = E64V; result = 7.63%
Change = M176V; result = 5.88%
Change = L164C; result = 14.6%
Change = T101F; result = 60.5%
Change = Q10I; result = -1.23%
Change = V62D; result = -6.89%
Change = D48V; result = 2.88%
Change = K168T; result = 2.43%
Change = H110I; result = -5.87%
Change = Q51H; result = 17.2%
Change = L94T; result = -5.7%
Change = K126C; result = 50.3%
Change = R123M; result = 4.36%
Change = S171C; result = 8.2%
Change = G148L; result = -5.15%
Change = F5D; result = -2.5%
Change = S59L; result = -0.471%
Change = E4C; result = 12.1%

Set 3 — technique: aptamer microarray, sandwich; molecule type: DNA with 2'F-ANA; sample: in vitro; tested at: 200 nM; with: Cy3 exosite-II aptamer, 400 nM; reading: higher = stronger binding; quantity: mean fluorescence intensity; oligonucleotide: GGTTGGTGTGGTTGG
Target: Prothrombin, mature alpha-thrombin (F2, Homo sapiens, UniProt P00734)
Notes: whole 15-mer aptamer, many near background
Modification = 2'F-ANA at 1 2 4 8 12 14; result = 65.7 a.u.
Modification = 2'F-ANA at 1 3 6 8 13 15; result = 240 a.u.
Modification = 2'F-ANA at 1 4 7 8 9; result = 132 a.u.
Modification = 2'F-ANA at 2 3 4 8 9 10 11 12 14; result = 190 a.u.
Modification = 2'F-ANA at 1 3 6 7 8 9 14 15; result = 90.8 a.u.
Modification = 2'F-ANA at 1 2 3 4 5 6 7 8 9 11 13 14; result = 56 a.u.
Modification = 2'F-ANA at 1 3 4 6 7 8 9 12; result = 401 a.u.
Modification = 2'F-ANA at 1 2 3 4 5 6 10 12 13 15; result = 54 a.u.
Modification = 2'F-ANA at 2 3 4 5 8 11 12; result = 193 a.u.
Modification = 2'F-ANA at 1 5 6 8 12 15; result = 104 a.u.
Modification = 2'F-ANA at 1 3 4 9 11 13; result = 132 a.u.
Modification = 2'F-ANA at 1 2 3 4 5 9 10 11 12 13 14; result = 44 a.u.
Modification = 2'F-ANA at 1 2 3 4 5 7 9 10 11 12 13 15; result = 51.7 a.u.
Modification = 2'F-ANA at 2 4 6 7 8 11 12 15; result = 402 a.u.
Modification = 2'F-ANA at 2 4 9 10 11 12 13 14 15; result = 151 a.u.
Modification = 2'F-ANA at 1 2 4 8 10 12 14; result = 47.7 a.u.
Modification = 2'F-ANA at 1 4 7 8 9 10 12 14 15; result = 47.6 a.u.
Modification = 2'F-ANA at 2 5 6 9 11 13; result = 334 a.u.
Modification = 2'F-ANA at 2 7 8 9 10 11 12 13 14; result = 83.4 a.u.
Modification = 2'F-ANA at 1 8 9 10 12 13; result = 65.7 a.u.
Modification = 2'F-ANA at 3 4 5 9 10 14; result = 50.9 a.u.
Modification = 2'F-ANA at 1 4 7 8 12; result = 393 a.u.
Modification = 2'F-ANA at 1 6 13 14; result = 57.3 a.u.
Modification = 2'F-ANA at 3 4 8 9 10 12; result = 362 a.u.

Set 4 — technique: protein-binding microarray; molecule type: double-stranded DNA, one strand shown; sample: in vitro; tested at: 2540 nM top; notes: 60-bp whole probe; with: salmon DNA 0.4 mg/ml; relative to: random background probes; reading: higher = stronger binding; quantity: fitted relative affinity; constant ends, left off below: GCCTAGCAC … GTCTTGATTCGCTTGACGCTGCTG
Target: Interferon regulatory factor 3, full length, phosphomimetic (IRF3, Homo sapiens, UniProt Q14653, residues 1-427, S386D/S396D/S398D/S402D/T404D/S405D)
Construct (chain): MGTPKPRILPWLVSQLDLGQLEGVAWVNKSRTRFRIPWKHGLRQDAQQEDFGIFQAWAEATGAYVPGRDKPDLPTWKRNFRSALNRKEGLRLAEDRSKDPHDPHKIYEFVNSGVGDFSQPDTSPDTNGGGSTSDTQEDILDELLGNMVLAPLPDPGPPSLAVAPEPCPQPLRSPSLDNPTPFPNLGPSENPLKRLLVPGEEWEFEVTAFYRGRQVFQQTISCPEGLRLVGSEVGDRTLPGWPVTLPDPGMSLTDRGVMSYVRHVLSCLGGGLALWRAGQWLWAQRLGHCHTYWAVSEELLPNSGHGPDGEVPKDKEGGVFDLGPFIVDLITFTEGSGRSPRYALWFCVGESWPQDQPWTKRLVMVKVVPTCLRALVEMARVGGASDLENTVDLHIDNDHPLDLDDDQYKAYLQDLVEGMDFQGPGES
Oligonucleotide = TGAGCTTACAATATAAAAGGGTGCTAG; result = -0.0264 z-score
Oligonucleotide = TCACCTTTATGTCCTGTACTGTGCTAG; result = 1.51 z-score
Oligonucleotide = GACGGTTTCGGGTATGGGGACGTGCTA; result = 4.55 z-score
Oligonucleotide = ATTTAAGTTTCACTCTGCATGGTGCTA; result = 3.68 z-score
Oligonucleotide = GACGGTTTCGACTATCGGGTCGTGCTA; result = 3.03 z-score
Oligonucleotide = GACGAATTGGGGACTGGAGACGTGCTA; result = -0.511 z-score
Oligonucleotide = GACGGACTACTTCTCCTGACGTGCTAG; result = 0.416 z-score
Oligonucleotide = TTAGGTTTCGGGAATCGGTTAGTGCTA; result = 3.13 z-score
Oligonucleotide = TTAGATTTCGGACTGGGTTAGTGCTAG; result = 1.44 z-score
Oligonucleotide = GACGATATCGGCTATCGAGACGTGCTA; result = -0.144 z-score
Oligonucleotide = GACGGCTTCGGGACTGGGGACGTGCTA; result = -0.816 z-score
Oligonucleotide = GACGAACTGCGGTTTCGAGACGTGCTA; result = 1.79 z-score
Oligonucleotide = TCACTTTTTTTTTTCCCACTGTGCTAG; result = 2.08 z-score
Oligonucleotide = GACGAACTGAGTTTCAAGACGTGCTAG; result = 0.137 z-score
Oligonucleotide = GACGGACTGGGACTGGGAACGTGCTAG; result = -0.628 z-score
Oligonucleotide = CTGGAGGTTGGGCAAGGCCCGTGCTAG; result = -1.56 z-score
Oligonucleotide = AAGACTCTCTTGTCTGGATGTGTGCTA; result = -0.298 z-score
Oligonucleotide = TTAGGTTTCGACTTGCGGTTAGTGCTA; result = 2.87 z-score
Oligonucleotide = GACGGTTTCGGCATCGGGACGTGCTAG; result = 3.59 z-score
Oligonucleotide = TTAGATCTCAGTTTTGATTAGTGCTAG; result = 1.05 z-score
Oligonucleotide = GACGGACTGGACTATCGGTACGTGCTA; result = -0.279 z-score
Oligonucleotide = GACGATCTCCGTTTCGAGACGTGCTAG; result = 2.64 z-score
Oligonucleotide = TCAGGTATCCTTCTCCTTTAGTGCTAG; result = 7.44 z-score
Oligonucleotide = TTAGAACTGAGTATCAATTAGTGCTAG; result = -0.0693 z-score
Oligonucleotide = GACGGAGTGGACACTGGGGACGTGCTA; result = -0.777 z-score

Excerpt of the above (set 3):
Modification = 2'F-ANA at 1 4 7 8 9 10 12 14 15; result = 47.6 a.u.
Modification = 2'F-ANA at 2 5 6 9 11 13; result = 334 a.u.
Modification = 2'F-ANA at 2 7 8 9 10 11 12 13 14; result = 83.4 a.u.
Modification = 2'F-ANA at 1 8 9 10 12 13; result = 65.7 a.u.
Modification = 2'F-ANA at 3 4 5 9 10 14; result = 50.9 a.u.
Modification = 2'F-ANA at 1 4 7 8 12; result = 393 a.u.
